Measurements gathered from unrelated publications.
Every numbered part comes from another study and shows a few of its results, in no order.
UniProt P07333, sequence (whole entry, looked up): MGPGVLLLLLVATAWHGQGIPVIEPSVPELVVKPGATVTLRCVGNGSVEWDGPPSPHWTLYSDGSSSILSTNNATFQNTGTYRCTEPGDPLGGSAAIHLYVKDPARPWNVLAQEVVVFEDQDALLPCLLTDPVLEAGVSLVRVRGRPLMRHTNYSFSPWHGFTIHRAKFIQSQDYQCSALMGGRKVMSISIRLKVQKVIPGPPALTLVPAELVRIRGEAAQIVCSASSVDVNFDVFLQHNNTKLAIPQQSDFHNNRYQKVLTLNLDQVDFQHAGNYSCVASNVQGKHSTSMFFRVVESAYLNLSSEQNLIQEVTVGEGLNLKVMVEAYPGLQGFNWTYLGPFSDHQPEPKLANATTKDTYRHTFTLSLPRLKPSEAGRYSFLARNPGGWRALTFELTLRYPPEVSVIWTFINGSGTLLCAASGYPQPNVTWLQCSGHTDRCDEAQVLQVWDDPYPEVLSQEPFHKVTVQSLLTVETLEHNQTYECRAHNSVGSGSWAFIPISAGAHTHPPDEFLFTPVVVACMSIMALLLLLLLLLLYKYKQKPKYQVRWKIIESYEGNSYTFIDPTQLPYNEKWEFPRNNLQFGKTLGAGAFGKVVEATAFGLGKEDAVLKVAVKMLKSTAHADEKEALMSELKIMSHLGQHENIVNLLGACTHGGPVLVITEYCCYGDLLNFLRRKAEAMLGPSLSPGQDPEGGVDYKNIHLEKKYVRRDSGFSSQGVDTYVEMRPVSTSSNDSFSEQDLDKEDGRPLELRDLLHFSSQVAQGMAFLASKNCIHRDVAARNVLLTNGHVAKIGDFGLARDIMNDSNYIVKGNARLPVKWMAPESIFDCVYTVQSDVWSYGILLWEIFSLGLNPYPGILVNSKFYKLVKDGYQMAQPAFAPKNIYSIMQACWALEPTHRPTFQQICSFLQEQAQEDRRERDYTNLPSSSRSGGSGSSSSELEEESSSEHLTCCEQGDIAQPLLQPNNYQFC
UniProt Q04759, sequence (whole entry, looked up): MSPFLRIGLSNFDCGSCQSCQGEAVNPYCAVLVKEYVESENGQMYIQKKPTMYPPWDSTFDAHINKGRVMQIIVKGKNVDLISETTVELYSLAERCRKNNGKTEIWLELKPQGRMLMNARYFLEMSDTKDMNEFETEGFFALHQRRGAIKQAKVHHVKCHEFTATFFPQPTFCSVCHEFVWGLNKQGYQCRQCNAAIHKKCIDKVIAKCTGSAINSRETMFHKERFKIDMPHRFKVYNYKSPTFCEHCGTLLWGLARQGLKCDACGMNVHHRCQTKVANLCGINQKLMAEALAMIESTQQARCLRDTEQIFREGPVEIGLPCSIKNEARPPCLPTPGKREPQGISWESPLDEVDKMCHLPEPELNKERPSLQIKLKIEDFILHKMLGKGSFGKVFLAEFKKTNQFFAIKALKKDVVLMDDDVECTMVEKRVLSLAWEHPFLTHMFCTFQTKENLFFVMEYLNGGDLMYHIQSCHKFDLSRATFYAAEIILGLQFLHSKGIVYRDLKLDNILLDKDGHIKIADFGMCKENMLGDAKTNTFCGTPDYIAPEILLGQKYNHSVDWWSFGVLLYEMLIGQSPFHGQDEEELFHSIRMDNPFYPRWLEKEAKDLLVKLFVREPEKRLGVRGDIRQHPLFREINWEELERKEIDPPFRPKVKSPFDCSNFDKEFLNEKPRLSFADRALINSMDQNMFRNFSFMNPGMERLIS
UniProt Q8N752, sequence (whole entry, looked up): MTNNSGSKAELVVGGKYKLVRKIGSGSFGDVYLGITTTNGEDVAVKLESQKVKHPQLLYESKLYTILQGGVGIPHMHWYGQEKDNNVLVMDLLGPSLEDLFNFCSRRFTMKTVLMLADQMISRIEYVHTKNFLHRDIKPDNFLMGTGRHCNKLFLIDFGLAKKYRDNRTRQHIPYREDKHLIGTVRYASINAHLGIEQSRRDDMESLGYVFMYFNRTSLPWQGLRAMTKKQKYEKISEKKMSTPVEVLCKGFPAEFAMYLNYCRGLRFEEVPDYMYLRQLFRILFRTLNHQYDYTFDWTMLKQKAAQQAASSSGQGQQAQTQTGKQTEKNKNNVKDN
UniProt Q8WXR4, sequence (whole entry, looked up): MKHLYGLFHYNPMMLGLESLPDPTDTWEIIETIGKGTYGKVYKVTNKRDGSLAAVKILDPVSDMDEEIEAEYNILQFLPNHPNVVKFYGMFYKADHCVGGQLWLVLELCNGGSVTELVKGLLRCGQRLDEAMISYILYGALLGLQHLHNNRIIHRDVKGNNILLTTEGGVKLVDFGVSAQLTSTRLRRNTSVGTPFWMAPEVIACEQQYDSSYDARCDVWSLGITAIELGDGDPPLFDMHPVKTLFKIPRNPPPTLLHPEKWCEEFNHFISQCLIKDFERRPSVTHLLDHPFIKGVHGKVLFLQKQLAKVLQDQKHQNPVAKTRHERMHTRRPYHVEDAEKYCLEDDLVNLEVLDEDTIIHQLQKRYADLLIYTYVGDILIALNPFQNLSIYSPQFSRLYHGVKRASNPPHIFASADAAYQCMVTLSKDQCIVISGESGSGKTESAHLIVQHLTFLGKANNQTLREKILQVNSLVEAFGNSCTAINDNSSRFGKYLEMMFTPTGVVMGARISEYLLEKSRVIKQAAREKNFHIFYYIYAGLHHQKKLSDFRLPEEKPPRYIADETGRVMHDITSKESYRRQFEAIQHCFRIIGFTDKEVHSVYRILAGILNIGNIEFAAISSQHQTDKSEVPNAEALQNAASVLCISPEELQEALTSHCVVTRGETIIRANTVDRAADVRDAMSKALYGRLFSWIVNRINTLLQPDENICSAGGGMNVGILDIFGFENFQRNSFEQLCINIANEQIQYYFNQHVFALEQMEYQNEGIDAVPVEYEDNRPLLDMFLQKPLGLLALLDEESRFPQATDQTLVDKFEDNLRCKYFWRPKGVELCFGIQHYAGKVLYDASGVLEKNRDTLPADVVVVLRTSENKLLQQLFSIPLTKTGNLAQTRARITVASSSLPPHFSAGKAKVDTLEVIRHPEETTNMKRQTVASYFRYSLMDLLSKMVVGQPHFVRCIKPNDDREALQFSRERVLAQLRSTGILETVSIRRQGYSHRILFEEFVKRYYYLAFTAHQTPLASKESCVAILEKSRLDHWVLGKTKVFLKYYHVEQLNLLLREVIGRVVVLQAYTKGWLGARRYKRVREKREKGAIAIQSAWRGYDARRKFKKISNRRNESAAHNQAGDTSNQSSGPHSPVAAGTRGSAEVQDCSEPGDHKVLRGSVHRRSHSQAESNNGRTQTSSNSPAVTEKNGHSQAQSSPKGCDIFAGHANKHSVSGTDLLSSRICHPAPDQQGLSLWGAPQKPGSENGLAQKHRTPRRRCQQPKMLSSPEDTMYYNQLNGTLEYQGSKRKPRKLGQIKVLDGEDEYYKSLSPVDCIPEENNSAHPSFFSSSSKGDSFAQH
UniProt P51955, sequence (whole entry, looked up): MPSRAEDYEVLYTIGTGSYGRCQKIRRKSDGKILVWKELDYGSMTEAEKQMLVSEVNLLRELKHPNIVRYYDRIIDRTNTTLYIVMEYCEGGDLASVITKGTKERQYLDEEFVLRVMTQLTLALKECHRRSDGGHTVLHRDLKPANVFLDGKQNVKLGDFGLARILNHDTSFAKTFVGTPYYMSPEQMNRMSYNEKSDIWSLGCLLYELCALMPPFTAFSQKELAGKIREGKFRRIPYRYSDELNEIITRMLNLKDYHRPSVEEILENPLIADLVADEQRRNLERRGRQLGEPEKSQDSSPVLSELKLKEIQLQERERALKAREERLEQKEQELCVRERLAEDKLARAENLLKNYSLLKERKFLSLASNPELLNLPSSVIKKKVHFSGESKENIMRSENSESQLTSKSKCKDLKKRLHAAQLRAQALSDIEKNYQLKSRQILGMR
UniProt P42336, sequence (whole entry, looked up): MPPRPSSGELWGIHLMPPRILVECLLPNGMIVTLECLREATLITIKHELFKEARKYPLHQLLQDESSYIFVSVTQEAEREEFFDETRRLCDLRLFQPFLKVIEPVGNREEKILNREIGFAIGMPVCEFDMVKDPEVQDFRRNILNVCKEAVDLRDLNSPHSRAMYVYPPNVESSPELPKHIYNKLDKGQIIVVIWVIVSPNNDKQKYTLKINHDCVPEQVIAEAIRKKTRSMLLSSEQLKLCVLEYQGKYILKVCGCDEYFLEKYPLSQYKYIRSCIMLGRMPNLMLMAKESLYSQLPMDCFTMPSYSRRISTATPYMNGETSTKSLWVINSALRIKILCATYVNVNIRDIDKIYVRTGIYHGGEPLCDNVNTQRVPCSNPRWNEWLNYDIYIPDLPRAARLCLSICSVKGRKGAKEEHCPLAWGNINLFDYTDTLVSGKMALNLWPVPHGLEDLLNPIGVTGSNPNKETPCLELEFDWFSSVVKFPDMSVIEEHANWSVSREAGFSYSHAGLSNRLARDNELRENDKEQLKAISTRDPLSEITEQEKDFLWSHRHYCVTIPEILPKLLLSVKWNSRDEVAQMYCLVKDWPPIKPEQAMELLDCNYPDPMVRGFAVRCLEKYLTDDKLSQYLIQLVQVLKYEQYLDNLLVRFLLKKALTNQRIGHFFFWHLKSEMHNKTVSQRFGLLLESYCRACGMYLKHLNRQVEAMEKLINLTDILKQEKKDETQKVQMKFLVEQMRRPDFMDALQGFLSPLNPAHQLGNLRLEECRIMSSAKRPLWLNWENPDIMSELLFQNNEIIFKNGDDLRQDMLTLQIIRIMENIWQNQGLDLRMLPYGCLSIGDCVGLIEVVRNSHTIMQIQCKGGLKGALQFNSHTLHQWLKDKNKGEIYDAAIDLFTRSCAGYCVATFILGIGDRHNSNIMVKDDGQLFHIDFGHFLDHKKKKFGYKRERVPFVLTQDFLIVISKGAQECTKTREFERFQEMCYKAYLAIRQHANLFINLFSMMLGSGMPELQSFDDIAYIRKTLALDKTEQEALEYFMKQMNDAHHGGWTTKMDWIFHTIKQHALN

Study 1
Cell line: Huh-7
Tested at: 10 µM
Time: 24 h
Structure (SMILES) | viability [%]
NS(=O)(=O)c1cc2c(cc1Cl)NC(C1CC3C=CC1C3)NS2(=O)=O (stereo not shown) | 102
CC(C[N+](C)(C)C)OC(N)=O (stereo not shown) | 102
CC[C@H]1OC(=O)C[C@@H](O)[C@H](C)[C@@H](O[C@@H]2O[C@H](C)[C@@H](O)[C@H](N(C)C)[C@H]2O)[C@@H](CCN2C[C@H](C)C[C@H](C)C2)C[C@@H](C)C(=O)/C=C/C(C)=C/[C@@H]1CO[C@@H]1O[C@H](C)[C@@H](O)[C@@H](OC)[C@H]1OC | 104
Cc1ccc(C(=O)Nc2ccc(S(=O)(=O)O)c3cc(S(=O)(=O)O)cc(S(=O)(=O)O)c23)cc1NC(=O)c1cccc(NC(=O)Nc2cccc(C(=O)Nc3cc(C(=O)Nc4ccc(S(=O)(=O)O)c5cc(S(=O)(=O)O)cc(S(=O)(=O)O)c45)ccc3C)c2)c1 | 102
CCCC(=O)Nc1ccc(OCC(O)CNC(C)C)c(C(C)=O)c1 (stereo not shown) | 103

Study 2
Target: His6 tag
Technique: AlphaScreen counter screen
Tested at: concentration not given
SMILES | inhibition [%]
CCN(CC)C(=S)Nc1ccc2nc[nH]c(=O)c2c1 | -2.4
O=C(Nc1cccnc1)c1n[nH]c2ccccc12 | 5.2
O=C(CSc1ccc2nnc(-c3ccc(Cl)cc3)n2n1)NCC1CCCO1 (stereo not shown) | -7.8
O=C1Nc2ccccc2C1=Nc1ccc(C(=O)O)cc1 | 5
C#Cc1cccc(Nc2ncnc3cc(OCCOC)c(OCCOC)cc23)c1 | 0.6
NC1=N/C(=C2/CCNC(=O)c3[nH]c(Br)cc32)C(=O)N1 | 4.9
CN1CCN(Cc2c(-c3ccco3)[nH]c3ncccc23)CC1 | 3.65

Study 3
Compound: CC#CC(=O)N1CCC[C@H]1c1nc(-c2ccc(C(=O)Nc3ccccn3)cc2)c2c(N)nccn12
Read-out: enzyme activity
Action: inhibitor
Tested at: 1 µM
target | inhibition
MAP3K12 (Homo sapiens, UniProt Q12852) | 3%
NEK7 (Homo sapiens, UniProt Q8TDX7) | 0%
CAMK4 (Homo sapiens, UniProt Q16566) | 0%

Study 4
Structure (SMILES): O=C(NCc1ncc(C(F)(F)F)cc1Cl)c1ccc2c(c1)C1(CCS(=O)(=O)CC1)[C@@H](C1CC1)N2S(=O)(=O)c1ccc(F)cc1
Read-out: cell-free assay
Technique: competition with immobilised ligand
Tested at: 1 µM
target | remaining binding [%]
Macrophage colony-stimulating factor 1 receptor, autoinhibited (CSF1R, Homo sapiens, UniProt P07333) | 74
NEK2 (Homo sapiens, UniProt P51955) | 88
DCLK2 (Homo sapiens, UniProt Q8N568) | 100
Myosin-IIIb (MYO3B, Homo sapiens, UniProt Q8WXR4) | 100
CSNK1A1L (Homo sapiens, UniProt Q8N752) | 100
IRAK3 (Homo sapiens, UniProt Q9Y616) | 100
ROCK1 (Homo sapiens, UniProt Q13464) | 82
PRKCQ (Homo sapiens, UniProt Q04759) | 95
CSF1R (Homo sapiens, UniProt P07333) | 87
MAPK12 (Homo sapiens, UniProt P53778) | 94
CDK5 (Homo sapiens, UniProt Q00535) | 89
RIPK4 (Homo sapiens, UniProt P57078) | 72
PIK3CA (Homo sapiens, UniProt P42336) | 100

Some of these lines once more (study 4):
target | remaining binding [%]
Macrophage colony-stimulating factor 1 receptor, autoinhibited (CSF1R, Homo sapiens, UniProt P07333) | 74
RIPK4 (Homo sapiens, UniProt P57078) | 72
MAPK12 (Homo sapiens, UniProt P53778) | 94
